Measured values pooled from the literature.
Each line is one published result; not all experiments were run side by side. “And” joins repeats or separate records; there may be more than shown.
Target: RAC-alpha serine/threonine-protein kinase (AKT1, Homo sapiens, UniProt P31749)
Chain of UniProt P31749 (whole entry, looked up): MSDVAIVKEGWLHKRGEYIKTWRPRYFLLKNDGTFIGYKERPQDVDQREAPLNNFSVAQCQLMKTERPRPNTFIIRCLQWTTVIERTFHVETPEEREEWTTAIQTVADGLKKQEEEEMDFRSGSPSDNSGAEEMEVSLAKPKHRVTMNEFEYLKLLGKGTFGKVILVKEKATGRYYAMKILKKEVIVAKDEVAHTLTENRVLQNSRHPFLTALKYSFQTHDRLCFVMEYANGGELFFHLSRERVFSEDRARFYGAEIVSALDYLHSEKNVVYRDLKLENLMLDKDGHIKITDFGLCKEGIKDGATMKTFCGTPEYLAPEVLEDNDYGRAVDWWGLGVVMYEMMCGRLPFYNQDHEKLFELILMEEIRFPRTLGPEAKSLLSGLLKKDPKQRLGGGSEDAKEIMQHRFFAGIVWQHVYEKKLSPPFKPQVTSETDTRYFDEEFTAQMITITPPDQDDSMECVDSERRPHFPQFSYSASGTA

CC(C)[C@H]1NC(=O)C[C@H]2/C=C/CCSSC[C@@H](NC1=O)C(=O)N[C@H](Cc1cccc3ccccc13)C(=O)NCC(=O)O2  inhibition (enzyme activity, inhibitor; 10 µM): -1.7%
[CH3][Ti+2][O]C(=O)c1ccc([S][Au][PH](c2ccccc2)(c2ccccc2)c2ccccc2)cc1.c1cc[cH-]c1.c1cc[cH-]c1  remaining activity (kinase activity, HotSpot radiometric; 1 µM, together with: ATP 10 µM; reference: vehicle): 88.2% and 89%
CS(C)(=O)=Nc1ccc(-c2ccc(-c3nc4cc(O[C@@H]5CO[C@H]6[C@@H]5OC[C@H]6O)[nH]c4cc3F)cc2)cc1  inhibition (enzyme activity, inhibitor; 10 µM): -9%
O=C1NC(=O)c2c1c1cc(F)c[n+]3c1c1c2c2cc(O)ccc2[n]1[Ru-4]312([N]=C=S)[S+]3CC[S+]1CC[S+]2CC3 (stereo not shown)  remaining activity (enzyme activity; 100 nM, human enzyme, together with: 10 µM ATP; reference: untreated): 10%
CN(C)[C@H]1C[C@@]23CC[C@@]4(O2)C(=CC[C@]2(C)[C@@H](c5ccc6ccncc6c5)CC[C@H]24)C=C3[C@@H](O)[C@@H]1O  inhibition (ATP probe labelling, inhibitor, KiNativ profiling; 0.1 µM): -4.6%
N[C@H](C(=O)N1CCCC1)C1CCN(c2nccc3c(-c4ncc(Cl)cc4Cl)cccc23)CC1  inhibition (kinase activity, inhibitor; 10 µM, together with: ATP 1 mM): 2.1%
CCOC(=O)[C@@H]1Cc2c(cc([N+](=O)[O-])cc2[N+](=O)[O-])[C@H](O)[C@]12C(=O)Nc1ccc(Br)cc12  remaining binding (binding, competition with immobilised ligand; 0.1 µM): 76%
Nc1ccc(/C=C/C(=O)N2CCc3c(oc4c(-c5ccc(F)cc5)cc(-c5ccc(C(=O)N6CCC(F)(F)CC6)cn5)cc34)C2)cn1  remaining binding (binding, competition with immobilised ligand; 1 µM): 99%
O=C(O)c1ccccc1/C=N/Nc1nc(-c2ccccc2Cl)cs1  inhibition (kinase activity; 1 µM, mean): 0.94%
C[C@H](NCc1ccc(-c2ccc(C(F)(F)F)cc2)cc1)C(N)=O  inhibition (cell-free assay, competition with immobilised ligand; 1 µM): 7%
